Measurements gathered from unrelated publications.
Numbered parts are unrelated; each lists some results of a single study. Substitutions count along the parent as printed.

Sample 1
Target: Ras GTPase-activating protein-binding protein 1, RRM domain (G3BP1, Homo sapiens, UniProt Q13283)
Chain of UniProt Q13283 (whole entry, looked up): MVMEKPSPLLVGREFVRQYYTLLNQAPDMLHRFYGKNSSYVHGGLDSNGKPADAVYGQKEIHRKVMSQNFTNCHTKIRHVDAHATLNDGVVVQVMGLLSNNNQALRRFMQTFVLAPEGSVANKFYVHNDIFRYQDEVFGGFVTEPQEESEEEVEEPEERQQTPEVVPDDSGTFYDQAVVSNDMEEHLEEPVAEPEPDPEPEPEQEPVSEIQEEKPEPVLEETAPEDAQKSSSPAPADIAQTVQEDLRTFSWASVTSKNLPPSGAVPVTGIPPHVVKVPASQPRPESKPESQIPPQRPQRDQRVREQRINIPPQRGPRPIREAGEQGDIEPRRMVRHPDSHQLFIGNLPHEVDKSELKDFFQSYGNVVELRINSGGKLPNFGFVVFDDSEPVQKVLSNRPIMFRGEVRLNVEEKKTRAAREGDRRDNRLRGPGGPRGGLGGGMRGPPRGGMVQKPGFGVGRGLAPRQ
Method: RNA Bind-n-Seq
Molecule type: RNA
Sample: in vitro
Concentration: 1 µM
Setting: whole 134-nt RNA, ends assumed
Added: 150 mM KCl
Baseline: input library
Direction: higher = stronger binding
Shared flanks, not repeated: GGGAGUUCUACAGUCCGACGAUC … UGGAAUUCUCGGGUGUCAAGG
Oligonucleotide	log2 enrichment
CACAGACAACACGCACCUACACAGACACAGAGGGAAGGGGUUGGGAUGGGGACAGGGUGCACAGCAGGGCGGGGUAGGACCCCAGCCCCU	-0.00987
CUCAAGUCCUGUGCUACACAUCGUAUGUACCGAAUCGGGGAGGGAGGGGAGGGAAAGUAUUAUGUUACGCCGUUCGGAUCUGCACUUCCA	0.722
AGUCCUGUGCUACACAUCGUAUGUACCGAAUCGGUUUUGGGGUUUUGGGGUUUUGGGAAAGUAUUAUGUUACGCCGUUCGGAUCUGCACU	-0.121
GCAGGAAGUAAAAACAAAUGGAAAUGCUUCGGAUAGUGGCAGGGGUGGGGGUUGCUAAGGAAAGGGUGGGAUGGUAGUGGGUAAAGAGUU	0.603
GUCCUGUGCUACACAUCGUAUGUACCGAAUCGGGGUUUGGGGAAAAAAAGGGGAGGGGAAAGUAUUAUGUUACGCCGUUCGGAUCUGCAC	0.962
CACAGACAACACGCACCCACACAGACACAGAGGGAAGGGGUUGGGAUGGGGACAGGGUGCACAGCAGGGCGGGGUAGGACCCCAGCACCU	-0.538
AGUCCUGUGCUACACAUCGUAUGUACCGAAUCGGGGUGGGGUUUUUUUGGGGAGGGGAAAGUAUUAUGUUACGCCGUUCGGAUCUGCACU	0.856
CAAGUCCUGUGCUACACAUCGUAUGUACCGAAUCGGAAAAAGGAAAGGAAAAAGGAAAGUAUUAUGUUACGCCGUUCGGAUCUGCACUUC	-0.0655
UCCUGUGCUACACAUCGUAUGUACCGAAUCGGGGAAAGGGGAAAGGGGUUUUUUUGGGGAAAGUAUUAUGUUACGCCGUUCGGAUCUGCA	0.944
GUCCUGUGCUACACAUCGUAUGUACCGAAUCGGGUUUUUGGGGUUUUUGGUUUUUGGGAAAGUAUUAUGUUACGCCGUUCGGAUCUGCAC	-0.194
AGUCCUGUGCUACACAUCGUAUGUACCGAAUCGGGGUUUGGGGAAAGGGGUUUGGGGAAAGUAUUAUGUUACGCCGUUCGGAUCUGCACU	1.28
UGCAGUCGAGCCAGCACCUGUUUCUGGACCUGCCUAAGGUAAGUGAGCUUUUCUCUCAACCUAGUUUUCAGGAGGCCUCUUCUGUCCCCU	-0.113
CACAGACAACAGGCACCCACACAGACACAGAGGGAAGGGGUUGGGAUGGGGACAGGGUGCACAGCAGGGCGGGGUAGGACCCCAGCCCCU	-0.0453
GCACGAAGUAAAAACAAAUGGAAAUGCUUCGGAUAGUGGCAGGGGUGGGGGUUGCUAAGGAAAGGGUGGGAUGGGAGUGGGUAAAGAGUU	1.04

Sample 2
Target: CCNE2, cyclin fold, Cln2 fusion (human)
Method: yeast growth competition, sequencing
Sample: yeast
Setting: strong parent motif
Baseline: not given
Direction: higher = stronger binding
Starting sequence: CDC25A docking peptide (human); PPHRRRLLFACSP
Change	normalised enrichment score
PPHRRRLLWACSP [F9W]	1.1
PPHRARLLFACSP [R5A]	1.05
PPHRRRLLFVCSP [A10V]	2.15
PPHRRRGLFACSP [L7G]	0.422
PKHRRRLLFACSP [P2K]	1.92
PPHRRRLRFACSP [L8R]	1.75
PPHRRRLLSACSP [F9S]	1.09
PPYRRRLLFACSP [H3Y]	2.66
PPHRKRLLFACSP [R5K]	1.23
PPHRRRLLFYCSP [A10Y]	1.12
PPHRRRYLFACSP [L7Y]	0.526
FPHRRRLLFACSP [P1F]	0.985
PPHRRRELFACSP [L7E]	0.787
PPHRRRLCFACSP [L8C]	2.4
PPHRRDLLFACSP [R6D]	0.411
PPHRRRLLFAQSP [C11Q]	2.34
PPHRRRLYFACSP [L8Y]	2.45
PPHRVRLLFACSP [R5V]	1.49
PPHRGRLLFACSP [R5G]	0.466
PPSRRRLLFACSP [H3S]	1.49
PPHRRRLLFASSP [C11S]	2.41
PPHRRRLGFACSP [L8G]	1.02
PPHRWRLLFACSP [R5W]	1.34
PPHRRRLLFACDP [S12D]	2.26
HPHRRRLLFACSP [P1H]	1.7

Sample 3
Target: ABI1, truncated, D143A, DHFR fusion (Arabidopsis thaliana)
Method: DHFR PCA, deep sequencing
Sample: yeast
Setting: methotrexate growth selection, single substitutions
Added: (+)-ABA 200 µM
Baseline: wild-type fitted maximum
Direction: higher = stronger binding
Starting sequence: PYL1, truncated, DHFR fusion (Arabidopsis thaliana); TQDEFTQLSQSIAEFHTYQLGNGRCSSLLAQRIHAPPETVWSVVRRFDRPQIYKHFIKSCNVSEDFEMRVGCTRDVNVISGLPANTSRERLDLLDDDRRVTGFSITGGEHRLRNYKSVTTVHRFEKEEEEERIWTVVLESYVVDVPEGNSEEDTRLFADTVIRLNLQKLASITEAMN; partner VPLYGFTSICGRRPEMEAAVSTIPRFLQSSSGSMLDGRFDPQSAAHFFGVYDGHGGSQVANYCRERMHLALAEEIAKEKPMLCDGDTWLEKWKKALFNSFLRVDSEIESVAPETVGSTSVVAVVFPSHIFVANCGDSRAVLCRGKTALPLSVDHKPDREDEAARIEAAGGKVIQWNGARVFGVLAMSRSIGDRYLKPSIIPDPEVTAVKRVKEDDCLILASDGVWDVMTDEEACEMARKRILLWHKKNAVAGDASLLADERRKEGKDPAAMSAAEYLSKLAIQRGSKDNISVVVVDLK
Change	relative binding score [%]
T101V	104
N22G	99.9
M68P	96.1
E67A	99.5
W41C	18.1
R111A	54.7
L93S	91
H110V	9.01
N77W	99.1
V143K	-2.08
F15C	81.7
P50D	0.987
F5G	88.5
R90I	85.5
F5A	89.9
T73V	108
R88L	101
H16A	0.344
V145K	65.6
E4D	97.3

Sample 4
Target: UBE2Q2 UBC core domain (UniProt Q8WVN8)
Chain of UniProt Q8WVN8 (whole entry, looked up): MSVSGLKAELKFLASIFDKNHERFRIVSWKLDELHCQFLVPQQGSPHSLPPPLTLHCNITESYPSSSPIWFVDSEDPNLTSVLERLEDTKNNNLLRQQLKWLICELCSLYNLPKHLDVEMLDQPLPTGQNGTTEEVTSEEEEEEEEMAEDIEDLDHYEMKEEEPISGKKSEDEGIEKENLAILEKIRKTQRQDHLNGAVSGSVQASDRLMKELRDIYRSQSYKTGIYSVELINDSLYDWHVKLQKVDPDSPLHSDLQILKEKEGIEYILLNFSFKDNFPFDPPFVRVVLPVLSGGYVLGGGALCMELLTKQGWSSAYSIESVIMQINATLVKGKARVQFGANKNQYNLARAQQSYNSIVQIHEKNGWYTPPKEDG
Method: yeast two-hybrid
Sample: yeast
Setting: mostly zero background
Baseline: not given
Direction: higher = stronger interaction
B1: TRIM72 RING domain (UniProt Q6ZMU5); chain APGLLHQELSCPLCLQLFDAPVTAECGHSFCRACLGRVAGEPAADGTVLCPCCQAPTRPQALST
B2: CUL9 RING domain (UniProt Q8IWT3); chain AQAVPVRPDHCPVCVSPLGCDDDLPSLCCMHYCCKSCWNEYLTTRIEQNLVLNCTCPIADCPAQPTGAFIR
B3: TRIM69 RING domain (UniProt Q86WT6); chain VIQDITMELHCPLCNDWFRDPLMLSCGHNFCEACIQDFWRLQAKETFCPECKMLCQYNNCTF
B4: IRF2BPL RING domain (UniProt Q9H1B7); chain SPMANSGPLCCTICHERLEDTHFVQCPSVPSHKFCFPCSRESIKAQGATGEVYCPSGEKCPLVGSNVP
B5: RNF25 RING domain (UniProt Q96BH1); chain LTDNNIPHGQCVICLYGFQEKEAFTKTPCYHYFHCHCLARYIQHMEQELKAQGQEQEQERQHATTKQKAVGVQCPVCREPLVYDLASL
B6: RC3H2 RING domain (UniProt Q9HBD1); chain QAAQWTEFLSCPICYNEFDENVHKPISLGCSHTVCKTCLNKLHRKACPFDQTAINTDIDVL
B7: MID1 RING domain (UniProt O15344); chain METLESELTCPICLELFEDPLLLPCAHSLCFNCAHRILVSHCATNESVESITAFQCPTCRHVITLSQRGL
B8: PHF21A RING domain (UniProt Q96BD5); chain SPTSTDGDIHEDFCSVCRKSGQLLMCDTCSRVYHLDCLDPPLKTIPKGMWICPRCQDQMLKKEEAIPW
B9: TRIM63 RING domain (UniProt Q969Q1); chain PMENLEKQLICPICLEMFTKPVVILPCQHNLCRKCANDIFQAANPYWTSRGSSVSMSGGRFRCPTCRHEVIMDRHGV
Sequence	lacZ reporter activity
B1 (TRIM72 RING domain)	0
QLRRLQEERTCKVCMDKEVSVVFIPCGHLVVCQECAPSLRKCPICRGIIKGTVRTF (BIRC2 RING domain (UniProt Q13490))	0
B2 (CUL9 RING domain)	0
QLQDIKEQTMCPVCLDRLKNMIFLCGHGTCQLCGDRMSECPICRKAIERRILLY (MIB1 RING domain (UniProt Q86YT6))	0
B3 (TRIM69 RING domain)	0
B4 (IRF2BPL RING domain)	0
B5 (RNF25 RING domain)	0
B6 (RC3H2 RING domain)	0
QLRRLQEERTCKVCMDKEVSIVFIPCGHLVVCKDCAPSLRKCPICRSTIKGTVRTF (BIRC3 RING domain (UniProt Q13489))	0
KTLSRFGIQPCSICLGDAKDPVCLPCDHVHCLRCLRAWFASEQMICPYCLTALPDEFSPA (RNF213 RING domain (UniProt Q63HN8))	0
RLTMMWEEVTCPICLDPFVEPVSIECGHSFCQECISQVGKGGGSVCPVCRQRFLLKNLRP (TRIM21 RING domain (UniProt P19474))	0
DDENSDNSNECVVCLSDLRDTLILPCRHLCLCTSCADTLRYQANNCPICRLPFRALLQIR (MGRN1 RING domain (UniProt O60291))	0
B7 (MID1 RING domain)	0
B8 (PHF21A RING domain)	0
B9 (TRIM63 RING domain)	0

For quick reference, copied from above (sample 2):
Change	normalised enrichment score
PPHRVRLLFACSP [R5V]	1.49
PPHRRRLGFACSP [L8G]	1.02
PPHRARLLFACSP [R5A]	1.05
PPHRRRGLFACSP [L7G]	0.422
HPHRRRLLFACSP [P1H]	1.7
PPSRRRLLFACSP [H3S]	1.49
PPHRRDLLFACSP [R6D]	0.411
PPHRRRLCFACSP [L8C]	2.4
PPHRRRLLFYCSP [A10Y]	1.12
PPHRRRLLSACSP [F9S]	1.09
PPHRRRLYFACSP [L8Y]	2.45
